Measured values pooled from the literature.
Numbered parts are unrelated; each lists some results of a single study. Positions count from the first letter of the parent shown.

Set 1 — target: UBE2G1 UBC core domain (UniProt P62253); method: yeast two-hybrid; medium: yeast; setting: mostly zero background; baseline: not given; direction: higher = stronger interaction; measurement: lacZ reporter activity
B1: SYTL4 RING domain (UniProt Q96C24); chain RGSQHYSDRTCARCQESLGRLSPKTNTCRGCNHLVCRDCRIQESNGTWRCKVCAKEIELKKAT
B2: ZMIZ2 RING domain (UniProt Q8NF64); chain GTIPGTPGPNGEDGVEQTAIKVSLKCPITFRRIQLPARGHDCRHIQCFDLESYLQLNCERGTWRCPVCNKTALLEGLEVDQYMLGILIYIQNSDYEEITIDPTCSWK
Construct (chain): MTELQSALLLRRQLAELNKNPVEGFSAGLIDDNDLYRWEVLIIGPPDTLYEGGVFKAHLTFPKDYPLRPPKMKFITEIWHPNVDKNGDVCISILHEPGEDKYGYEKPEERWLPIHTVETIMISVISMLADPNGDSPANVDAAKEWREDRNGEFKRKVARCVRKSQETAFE
Molecule = PEDRESLKSACVVCLSSFKSCVFLECGHVCSCTECYRALPEPKKCPICRQAITRVIPLY (MUL1 RING domain (UniProt Q969V5)); value = 0
Molecule = GSRLQEINDVCAICYHEFTTSARITPCNHYFHALCLRKWLYIQDTCPMCHQKVYIEDDIK (RNF139 RING domain (UniProt Q8WU17)); value = 0
Molecule = YQNEVDDDLVCHICLQPLLQPLDTPCGHTFCYKCLRNFLQEKDFCPLDRKRLHFKLCKK (LNX2 RING domain (UniProt Q8N448)); value = 0
Molecule = B1 (SYTL4 RING domain); value = 0
Molecule = B2 (ZMIZ2 RING domain); value = 0
Molecule = KETIKKTTKPCPRCHVPVEKNGGCMHMKCPQPQCRLEWCWNCGCEWNRVCMG (PRKN RING domain (UniProt O60260)); value = 0
Molecule = AVPSGLEENLCKICMDSPIDCVLLECGHMVTCTKCGKRMNECPICRQYVIRAVHVF (RFFL RING domain (UniProt Q8WZ73)); value = 0

Set 2 — method: EMSA with sequencing; form: double-stranded DNA, one strand shown; medium: in vitro; concentration: 10 and 20 nM; baseline: negative control set to 0; direction: higher = stronger binding; measurement: normalised bound fraction
Target: Hepatocyte nuclear factor 3-alpha (Foxa1, Mus musculus, UniProt P35582, residues 1-468, full length assumed)
UniProt P35582, sequence (whole entry, looked up): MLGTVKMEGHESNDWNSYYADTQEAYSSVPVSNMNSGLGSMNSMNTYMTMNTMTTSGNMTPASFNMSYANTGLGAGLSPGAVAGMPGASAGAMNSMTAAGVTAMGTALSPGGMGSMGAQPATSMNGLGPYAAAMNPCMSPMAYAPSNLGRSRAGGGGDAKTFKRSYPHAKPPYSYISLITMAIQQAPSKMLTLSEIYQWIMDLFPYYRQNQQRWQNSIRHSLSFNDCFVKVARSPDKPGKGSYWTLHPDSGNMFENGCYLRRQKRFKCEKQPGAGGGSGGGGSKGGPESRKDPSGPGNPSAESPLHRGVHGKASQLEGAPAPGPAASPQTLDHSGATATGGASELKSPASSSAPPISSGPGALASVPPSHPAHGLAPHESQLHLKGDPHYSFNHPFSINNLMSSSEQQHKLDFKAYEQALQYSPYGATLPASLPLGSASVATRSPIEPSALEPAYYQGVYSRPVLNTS
Setting: whole designed probe, mean of two concentrations, ends assumed
Strand = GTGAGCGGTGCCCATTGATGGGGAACATCTTCCCCCTCTTCCTTGCCCCACCAGCTCACCTTCCCGGGTTGTTTACTTTGAGCAAAGTAAACAAAGCCGGCATTCGTTAACCCTCTTCACGCGCATACTGCCAAAGTAAACAGATCTAACATGGTCCTTTGGCGACGCCAGGCTCCGGGAGAGCAAAGCACCGTGTCAGGGCCATGATCCGGGGTGGCCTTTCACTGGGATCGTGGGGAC; value = 0.559 ratio
Strand = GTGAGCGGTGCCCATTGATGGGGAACAAACAGTCCCATCAGGGCAATTTTGTCAATGACAGTTTCGTCAGCCTCCAAACACAGCAGAGTGGAAAACTGGTCATTCTTCAACTTTATCATGTTTATTTTGCTGGTCTTAGGCAATCCTTAAGCAAGTTTGACAAAACCCAGCTATTGCTCAATAAACCTCAGCCTTCTTGCTTGTTGTAGCAAATAAAATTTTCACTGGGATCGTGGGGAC; value = 0.256 ratio
Strand = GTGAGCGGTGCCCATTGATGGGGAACTCTTTCACTCAAGTGGTATATCCCACAGCCCTAAAGAAGCAAGGGAAATAAGAATTAGAACTAGACATCCCAGGAGACAAAGAATTCAACAAAGCAAACATTAACACTTCCTGCCCAATCCCTTCACTATTTACAGAAAATCTCTCTGGCTCAGGCCGGGCAGTGAGTTCATTTATTTCAACAAAATCAAAGATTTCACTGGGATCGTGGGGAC; value = 0.358 ratio
Strand = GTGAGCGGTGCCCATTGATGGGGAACTAGCCCCTAAAATACTCCTCCTTTACGCCAAAAGATTCTCTTTTCAGCTGTGTTTAAAGTGAAACAATTTTTTATTACGAAAAATTTTGAAAATGTAATCTTGCAAAAAAGATAAGCAAGACTGCTATAATCTAGAGCAAACCAATCTCAATATTTTGATGCATAGCCTTCTAAAATTTTTCTCTTTCTATATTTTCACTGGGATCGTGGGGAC; value = -0.0186 ratio
Strand = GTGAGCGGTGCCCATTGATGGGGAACTTCTGGTAACTCCAACTTTTGGCTCATTTGTGGGTCAGACAGATCTGAGAAGCTTGGTTTTTTTTTACTCTGTCTCAGGTACTTTATATTTAGTGTTTACATTCCTAGCCAGAGAAGCATTTATGTAAACACTCTCTATATTTAATGACTCAGTTTAAGAAAATGCTTACAATAATTGAGGTCTCCTTGTTTCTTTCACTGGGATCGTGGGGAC; value = 0.46 ratio

Set 3 — target: CCNF, cyclin fold, Cln2 fusion (human); method: yeast growth competition, sequencing; medium: yeast; setting: weak parent motif; baseline: not given; direction: higher = stronger binding; measurement: normalised enrichment score
Parent: DBF4 docking peptide (human); DDIVSKLVFDFVE
Variant = D2A; value = 0.479
Variant = F11A; value = -0.208
Variant = E13A; value = 0.0689
Variant = D1A; value = 0.264
Variant = V8A; value = -0.751
Variant = K6A; value = -0.329

Set 4 — method: protein-binding microarray; form: double-stranded DNA, one strand shown; medium: in vitro; concentration: 2200 nM top; setting: 60-bp whole probe; together with: salmon DNA 0.4 mg/ml; baseline: random background probes; direction: higher = stronger binding; measurement: fitted relative affinity; shared flanks, not repeated: GCCTAGCAC … GTCTTGATTCGCTTGACGCTGCTG
Target: Interferon regulatory factor 7, full length, phosphomimetic (IRF7, Homo sapiens, UniProt Q92985, residues 1-503, S471D/S472D/S475D/S476D/S477D/S483D/S484D/S487D)
Construct (chain): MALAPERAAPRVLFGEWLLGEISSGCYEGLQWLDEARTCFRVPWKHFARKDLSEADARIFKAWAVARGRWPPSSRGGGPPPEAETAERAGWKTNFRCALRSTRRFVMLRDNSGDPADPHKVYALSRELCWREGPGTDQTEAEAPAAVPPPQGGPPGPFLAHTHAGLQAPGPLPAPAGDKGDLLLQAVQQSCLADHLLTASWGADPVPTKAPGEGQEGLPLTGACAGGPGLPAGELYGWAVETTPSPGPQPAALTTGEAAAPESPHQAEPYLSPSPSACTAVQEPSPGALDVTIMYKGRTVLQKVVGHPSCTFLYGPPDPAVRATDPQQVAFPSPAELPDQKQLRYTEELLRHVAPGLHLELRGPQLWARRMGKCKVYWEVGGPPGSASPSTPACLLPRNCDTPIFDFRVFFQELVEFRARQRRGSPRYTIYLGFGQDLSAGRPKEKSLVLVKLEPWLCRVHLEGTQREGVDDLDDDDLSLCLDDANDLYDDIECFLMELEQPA
Strand = TTAGACCTGAGTTTCGATTAGTGCTAG; value = 4.09 z-score
Strand = GACGCACTGCTTATCCTGACGTGCTAG; value = 0.872 z-score
Strand = GACGATTCCAGCTTCGAGACGTGCTAG; value = 0.538 z-score
Strand = TTAGATTTCCTTCTCCTTTAGTGCTAG; value = 1.76 z-score
Strand = TTAGGTACCGACTTTCGGTTAGTGCTA; value = 5.81 z-score
Strand = TCAACTTTGCTCTGTGCGACTGTGCTA; value = 0.545 z-score
Strand = TTAGAGTTCAGTCTCGATTAGTGCTAG; value = -0.156 z-score
Strand = TTAGGTTCCCTTTTCCTTTTGTGCTAG; value = 4.68 z-score
Strand = GACGGTATTCTTCTCCTGACGTGCTAG; value = 0.995 z-score
Strand = TTAGGTTTCCTTTTCCTTTTGTGCTAG; value = 8.26 z-score
Strand = TTAGAACTGAGACTGGATTCGTGCTAG; value = -0.0782 z-score
Strand = TTAGAACTGGGGCCTGGATTAGTGCTA; value = -0.672 z-score
Strand = TTAGATCTCTGTTTCGATTAGTGCTAG; value = 3.71 z-score
Strand = GACGGACTGATTTTCCTGACGTGCTAG; value = 0.396 z-score
Strand = GACGGTTTCGGGTTCGGGACGTGCTAG; value = 9.77 z-score
Strand = TTGGGTTTCGACACTGGGTTAGTGCTA; value = 1.79 z-score
Strand = TCAGAAATCTCTTTCCTACTGTGCTAG; value = 0.778 z-score
Strand = CTCATTCTCTGTTTATGTCTGTGCTAG; value = 2.96 z-score
Strand = TTAGATTTCAGTTTCGAGTAGTGCTAG; value = 5.4 z-score

Set 5 — method: RNA Bind-n-Seq; form: RNA; medium: in vitro; concentration: 1 µM; setting: whole 134-nt RNA, ends assumed; together with: 150 mM KCl; baseline: input library; direction: higher = stronger binding; measurement: log2 enrichment
Target: Ras GTPase-activating protein-binding protein 1, C-terminal RGG region (G3BP1, Homo sapiens, UniProt Q13283)
UniProt Q13283, sequence (whole entry, looked up): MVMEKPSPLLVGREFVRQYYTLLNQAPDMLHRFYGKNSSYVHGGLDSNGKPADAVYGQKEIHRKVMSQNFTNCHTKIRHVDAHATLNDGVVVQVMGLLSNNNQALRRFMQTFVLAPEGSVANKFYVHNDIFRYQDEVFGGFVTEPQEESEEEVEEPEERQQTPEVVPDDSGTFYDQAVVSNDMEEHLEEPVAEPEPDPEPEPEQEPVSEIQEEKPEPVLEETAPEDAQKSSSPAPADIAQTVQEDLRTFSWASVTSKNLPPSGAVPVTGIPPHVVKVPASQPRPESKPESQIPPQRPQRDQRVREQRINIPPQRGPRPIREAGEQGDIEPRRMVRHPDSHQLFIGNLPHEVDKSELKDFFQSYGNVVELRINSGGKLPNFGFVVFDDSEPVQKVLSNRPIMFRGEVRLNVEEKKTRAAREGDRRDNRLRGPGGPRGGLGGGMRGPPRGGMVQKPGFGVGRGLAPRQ
Strand = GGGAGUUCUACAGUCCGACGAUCCAAGUCCUGUGCUACACAUCGUAUGUACCGAAUCGGGUGGGAAAAAAAGGGUGGGAAAGUAUUAUGUUACGCCGUUCGGAUCUGCACUUCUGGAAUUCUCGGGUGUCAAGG; value = 0.827
Strand = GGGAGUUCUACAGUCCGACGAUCCAAGUCCUGUGCUACACAUCGUAUGUACCGAAUCGGGUUUUUGGGAGGGAAAGGGAAAGUAUUAUGUUACGCCGUUCGGAUCUGCACUUCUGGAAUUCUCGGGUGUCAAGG; value = 1.59
Strand = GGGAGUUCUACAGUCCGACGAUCUUCGUUUUUUUCCUUAGUCUGAAGUUGCAGCCGGAGUGAAGAAGAGCGGACCGCUGCCCAGUGCUGAGGUAGAGUGUCGGAUCUGUUUUCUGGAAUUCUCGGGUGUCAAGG; value = -1.83
Strand = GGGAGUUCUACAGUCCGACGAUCCAAGUCCUGUGCUACACAUCGUAUGUACCGAAUCGGGUGGGUUUGGGAAAAAGGGAAAGUAUUAUGUUACGCCGUUCGGAUCUGCACUUCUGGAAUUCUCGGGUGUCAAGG; value = 1.44
Strand = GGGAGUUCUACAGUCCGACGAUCUGCACUGACUGGUGGUGUCAACCCAUGGCUCAACUGGAAGCACUGUGGAAGAAGAUGGAGGGUGUGGUAAGUCCAUCAGACCUGGGACCGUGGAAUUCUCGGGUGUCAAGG; value = -0.0204
Strand = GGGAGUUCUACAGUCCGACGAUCUGUGAAAGAAAACCGAAGUUUUAAAUGACUUCUCAUGGUUAUUUUUUUUCCUUUCUCUUGCAGGACAUUGGGGACACAUUGAGCAGGUAUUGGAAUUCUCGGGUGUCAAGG; value = -0.489
Strand = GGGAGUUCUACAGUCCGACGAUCUGGGAGGUGGAUUUUGUUUAUUUUUUUAGUUCAUUUCCAGGGGUGGGAAUUUUUUUUUAAUAUGUGUCAUGAAUAAAGUUGUUUUUGAAAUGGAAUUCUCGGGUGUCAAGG; value = 3.04
Strand = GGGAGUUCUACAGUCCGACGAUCCCUGUGCUACACAUCGUAUGUACCGAAUCGGGCCCCCCCGGCCCCCCCGGCCCCCCCGGGAAAGUAUUAUGUUACGCCGUUCGGAUCUGCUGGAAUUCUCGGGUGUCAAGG; value = -1.97
Strand = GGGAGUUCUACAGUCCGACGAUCAAGUCCUGUGCUACACAUCGUAUGUACCGAAUCGGGGUUUGGGGAGGGGAAAGGGGAAAGUAUUAUGUUACGCCGUUCGGAUCUGCACUUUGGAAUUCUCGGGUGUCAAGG; value = 2.37

Excerpt of the above (set 5):
Strand = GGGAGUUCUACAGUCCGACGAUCUGUGAAAGAAAACCGAAGUUUUAAAUGACUUCUCAUGGUUAUUUUUUUUCCUUUCUCUUGCAGGACAUUGGGGACACAUUGAGCAGGUAUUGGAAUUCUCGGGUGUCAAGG; value = -0.489
Strand = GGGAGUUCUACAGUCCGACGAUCUGGGAGGUGGAUUUUGUUUAUUUUUUUAGUUCAUUUCCAGGGGUGGGAAUUUUUUUUUAAUAUGUGUCAUGAAUAAAGUUGUUUUUGAAAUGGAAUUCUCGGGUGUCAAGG; value = 3.04
Strand = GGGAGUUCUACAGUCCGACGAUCCCUGUGCUACACAUCGUAUGUACCGAAUCGGGCCCCCCCGGCCCCCCCGGCCCCCCCGGGAAAGUAUUAUGUUACGCCGUUCGGAUCUGCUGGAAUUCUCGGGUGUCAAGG; value = -1.97
Strand = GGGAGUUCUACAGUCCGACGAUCAAGUCCUGUGCUACACAUCGUAUGUACCGAAUCGGGGUUUGGGGAGGGGAAAGGGGAAAGUAUUAUGUUACGCCGUUCGGAUCUGCACUUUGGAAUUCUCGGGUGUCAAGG; value = 2.37
